Measured values collected from several papers.
A part holds a random share of what one study measured. “And” joins repeats or separate records; there may be more than shown.

Study 1
Target: RING finger protein unkempt homolog, zinc fingers 1-6, SBP tag (UNK, Homo sapiens, UniProt Q9C0B0, residues 30-357)
Chain of UniProt Q9C0B0 (30-357, looked up): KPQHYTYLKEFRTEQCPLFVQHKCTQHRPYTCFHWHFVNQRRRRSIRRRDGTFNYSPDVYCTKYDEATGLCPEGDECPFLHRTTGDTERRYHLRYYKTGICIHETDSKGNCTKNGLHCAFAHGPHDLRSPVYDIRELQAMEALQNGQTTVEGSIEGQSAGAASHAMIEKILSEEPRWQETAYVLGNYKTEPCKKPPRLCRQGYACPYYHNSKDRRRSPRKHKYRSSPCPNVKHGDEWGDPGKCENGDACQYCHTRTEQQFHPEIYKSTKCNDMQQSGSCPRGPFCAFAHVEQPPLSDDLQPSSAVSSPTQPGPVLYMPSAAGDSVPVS
Method: RNA Bind-n-Seq
Form: RNA
Sample: in vitro
Tested at: 100 nM
Notes: RNA with constant flanks, vertebrate orthologous sites, ends assumed
Relative to: input RNA pool
Direction: higher = stronger binding
Endpoint: bound/input enrichment
Constant ends, left off below: GGGAGUUCUACAGUCCGACGAUC … CAACAGAGGAUUGAGCAUCA
AUCCCUCAGUGACAGUAUGCCAUCUGUAGCAGAUUCCCACUCUAGUCAUUUUUCUGAAUUUAGUUGUUCUGACCUAGAAAGCAUGAAAACUUCUUGCAGUCAUGGUUCCAGUGAUUAUCA: 2.56 ratio
GAGACGUCCCGAGGCUGUGUGUGCAAACACCUCACAGUGCUUGCUCCAUCCCACCAACUCUGAUUACUAGAAAUAUCCUUCUCUUACCUGUUAUUUAUCAAUUUUUCCCAGUAUUUUUAU: 1.26 ratio
CAAGGUGGGACCCGGGACCCACUGCUCAGUGGCCCGCUGGCCACGUCAGCCAAGCCACUUUAGGUCCAUUUUUUAUUUUAACAGUGCUCUUCCAUUCUGUGCAUAAGCCCGAGAUUUGGA: 2.11 ratio
AGCACUGCUUGUGCAGCUCCGCAACACUGAACGCAAAGUAGCCAUUUUCACAGUCACAGUAAACGGAGCUUUAGGGUGACAUUACCAUAGUGUUACUCAUGUGCAGGUGUUGAAAAUGUA: 0.231 ratio
GAAAAUCACGGCCGCUUUUACCUGCCUCAGUGAGGUAACGUCUCCCCUGACGUUUUAGAGCGCAUCACACAUGUCUUUCCACAUUUCAUCUCUUUACACUUACACUCAUCUUCAAAAAGG: 0.586 ratio
AGCAACUCAAGGAUUGAGGACAGGUUUUACAAAUAUACCAAGUAGAUAUGGAACUAAUAAUAGAAUUGGACAACCAAGACCAUGAUAGACUCUAACUUAUUUUUAUGAAGAAUAUUGAUU: 0.703 ratio
UAAUUCAAUGGUUGAAGGUUCAGAACUCAAAAAGGUUCGCUCCAACUCUAGAAUUUAUCAUAGGUACUUUUUACUGGAUGCCGACAUGCAGAGCCUAAGGUGGGAGCCAUCUAAGAAGGA: 0.279 ratio
GCAUUUUUAUCUCGAUGGUUUUGUUUUUUUAAUUUCUUUCUAGUCCUUUUUUACAUGGUCGUCUGUCUGUCUGUCUGUCACAUUUCCUUCUCAGGCGAAGGGCUAGAGUUAAAAAAAAAC: 0.667 ratio

Study 2
Target: Histone acetyltransferase KAT6A, both winged helices, GST fusion (KAT6A, Homo sapiens, UniProt Q92794, residues 1-181)
Method: protein binding microarray
Form: double-stranded DNA, one strand shown
Sample: in vitro
Tested at: not given
Notes: 8-mer, flanks averaged, mean of 2 arrays, mostly near background
Relative to: not given
Direction: higher = stronger binding
Endpoint: E-score
Construct (chain): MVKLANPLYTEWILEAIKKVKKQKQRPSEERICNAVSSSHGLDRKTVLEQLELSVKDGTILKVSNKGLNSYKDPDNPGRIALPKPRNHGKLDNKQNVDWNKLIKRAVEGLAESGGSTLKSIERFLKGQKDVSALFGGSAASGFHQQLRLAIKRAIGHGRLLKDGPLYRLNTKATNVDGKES
AGCTATGG: -0.184
AAAGGTAT: 0.0892
GGGACGCA: 0.0269
CCTATTGA: -0.202
TAGTAATA: -0.0394
TATGACAA: -0.0419
CCTGCCAC: -0.145
ATAGAAGC: -0.115

Study 3
Target: Sal-like protein 4, full length isoform A (SALL4, Homo sapiens, UniProt Q9UJQ4, residues 1-1053)
Chain of UniProt Q9UJQ4 (whole entry, looked up): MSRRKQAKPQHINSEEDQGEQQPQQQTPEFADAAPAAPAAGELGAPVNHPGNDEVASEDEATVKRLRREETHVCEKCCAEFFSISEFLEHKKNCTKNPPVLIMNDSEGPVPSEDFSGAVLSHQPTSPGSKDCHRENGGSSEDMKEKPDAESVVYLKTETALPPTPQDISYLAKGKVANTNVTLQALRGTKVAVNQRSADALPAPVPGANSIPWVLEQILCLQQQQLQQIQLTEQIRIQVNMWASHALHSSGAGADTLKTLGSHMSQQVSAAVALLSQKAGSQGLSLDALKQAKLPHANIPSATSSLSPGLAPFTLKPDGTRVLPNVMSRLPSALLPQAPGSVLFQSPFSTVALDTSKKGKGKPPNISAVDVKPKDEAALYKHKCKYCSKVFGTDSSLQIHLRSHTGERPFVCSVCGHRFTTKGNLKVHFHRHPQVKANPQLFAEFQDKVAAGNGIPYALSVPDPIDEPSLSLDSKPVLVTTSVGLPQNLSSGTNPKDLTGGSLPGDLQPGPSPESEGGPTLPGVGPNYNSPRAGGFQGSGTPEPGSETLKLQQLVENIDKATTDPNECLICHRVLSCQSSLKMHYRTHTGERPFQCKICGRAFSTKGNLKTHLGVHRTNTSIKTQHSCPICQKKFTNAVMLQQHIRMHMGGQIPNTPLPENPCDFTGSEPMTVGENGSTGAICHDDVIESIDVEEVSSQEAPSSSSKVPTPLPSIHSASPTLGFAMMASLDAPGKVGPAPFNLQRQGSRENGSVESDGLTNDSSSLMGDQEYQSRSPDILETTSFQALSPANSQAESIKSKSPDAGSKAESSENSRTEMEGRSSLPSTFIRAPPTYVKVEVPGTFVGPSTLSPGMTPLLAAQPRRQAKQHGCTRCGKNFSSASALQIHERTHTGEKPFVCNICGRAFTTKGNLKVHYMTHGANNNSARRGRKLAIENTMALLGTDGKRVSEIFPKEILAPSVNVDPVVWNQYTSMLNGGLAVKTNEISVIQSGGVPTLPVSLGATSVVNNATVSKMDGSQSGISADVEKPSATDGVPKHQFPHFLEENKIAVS
Method: universal PBM
Form: double-stranded DNA, one strand shown
Sample: in vitro
Tested at: 600 nM
Notes: 8-mer, flanks averaged, mean of replicates
Direction: higher = stronger binding
Endpoint: E-score
CTTACTAA: 0.133
ATCCCCCC: -0.315
AAGGACTG: -0.169
TCGATGCA: -0.00148
GTCCGTAA: -0.0838
TCACTAGA: 0.182
TCTCTGAA: -0.0557
CGAGACAA: -0.142
GCGACGAC: -0.268
AAGTGCAT: 0.164

Further values, each from its own experiment
PhoQ, residues 284 288 289 292 302 303 SSYNSA — fold induction (PhoP, residues 12 14 15 18 19 LWHSL (Escherichia coli, UniProt P23836); Sort-seq, item: YFP reporter; E. coli; PhoQ-PhoP variant library, added: 10 µM Mg2+; relative to: high Mg2+ state, higher = stronger signaling): 22.9 and 15.1
